# Results of several laboratories.
# Each numbered part is a random draw from the data of one study; scales do not carry over between parts. Changes are numbered by the printed parent chain.

# Set 1 — method: RNAcompete; form: RNA; matrix: in vitro; tested at: 20 nM; setting: 7-mer, probes averaged, single round; baseline: mean of 7-mers; direction: higher = stronger binding
# Target: PABPC1L2, full length, GST fusion (mouse, UniProt A0ABA7IW68)
# Construct (chain): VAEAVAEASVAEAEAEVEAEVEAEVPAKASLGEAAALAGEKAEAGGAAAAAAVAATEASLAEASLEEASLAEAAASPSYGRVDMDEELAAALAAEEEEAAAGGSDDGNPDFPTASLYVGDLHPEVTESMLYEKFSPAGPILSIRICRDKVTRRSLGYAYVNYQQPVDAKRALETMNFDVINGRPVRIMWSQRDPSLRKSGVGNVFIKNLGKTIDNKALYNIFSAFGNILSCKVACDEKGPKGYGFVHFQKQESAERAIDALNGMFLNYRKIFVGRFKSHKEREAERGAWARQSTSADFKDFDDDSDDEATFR
Oligonucleotide,7-mer Z-score
CCGGAUU,-0.266
GCCCCCG,-0.421
UCAUCGU,-0.393
UGACGCC,-0.246
CUUUUAA,0.311
GCGAGGG,0.309
GCGGGCG,0.213
UCCACGG,-0.0554
ACAUCUU,-0.302
UUUGGUC,-0.393
CGAAGAA,0.365
GGAAAGA,0.436
UGCGAGA,0.0841
GCCUCUG,-0.237
UAGUCUA,-0.229
GAGAGGC,0.216
AGGUUUG,-0.351
UCAUACA,-0.0609
CGUGGCG,-0.171
GGGACAU,0.196
CUGUCUA,-0.364

# Set 2 — target: CCNF, cyclin fold, Cln2 fusion (human); method: yeast growth competition, sequencing; matrix: yeast; setting: strong parent motif; baseline: not given; direction: higher = stronger binding
# Parent: INSM1 docking peptide (human); PKAIRKLHFEDEV
Change,normalised enrichment score
H8I,8.13
E10S,7.76
D11H,7.55
H8C,7.9
A3M,5.62
H8V,7.67
K6D,0.418
D11A,7.9
K2D,6.33
F9W,4.3
E12I,7.97
E10N,7.07
A3W,5.43
I4T,6.76
E12P,7.92
K2M,7.4
L7Y,0.0561
R5N,0.0122
E12V,7.67
A3L,6.42
E10C,7.52
F9G,-0.168
R5E,0.133
K6Y,4.97
F9T,0.191

# Set 3 — target: CREB3L4, bZIP domain (human); method: DHFR protein complementation; matrix: yeast; baseline: wild-type JUN-FOS pair; direction: higher = stronger binding
# Setting: single substitutions, most at no-binding floor
# Parent: JUN, bZIP domain (human); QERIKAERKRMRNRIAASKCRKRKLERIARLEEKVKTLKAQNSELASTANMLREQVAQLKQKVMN; partner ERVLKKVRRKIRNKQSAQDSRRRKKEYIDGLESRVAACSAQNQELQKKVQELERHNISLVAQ
Change,binding fitness [natural log]
E33A,-1.55
L31Y,-1.51
E33Q,-1.26
I28W,-1.41
T48K,-1.35
T48G,-1.51
L52Y,-1.47
K34E,-1.31
I28Y,-1.46
Q55L,-1.5
Q41W,-1.44
L59H,-1.54
S47M,-1.35

# Set 4 — method: universal PBM; form: double-stranded DNA, one strand shown; matrix: in vitro; tested at: 600 nM; direction: higher = stronger binding
# Target: Sal-like protein 4, full length isoform A (SALL4, Homo sapiens, UniProt Q9UJQ4, residues 1-1053)
# Sequence of UniProt Q9UJQ4 (whole entry, looked up): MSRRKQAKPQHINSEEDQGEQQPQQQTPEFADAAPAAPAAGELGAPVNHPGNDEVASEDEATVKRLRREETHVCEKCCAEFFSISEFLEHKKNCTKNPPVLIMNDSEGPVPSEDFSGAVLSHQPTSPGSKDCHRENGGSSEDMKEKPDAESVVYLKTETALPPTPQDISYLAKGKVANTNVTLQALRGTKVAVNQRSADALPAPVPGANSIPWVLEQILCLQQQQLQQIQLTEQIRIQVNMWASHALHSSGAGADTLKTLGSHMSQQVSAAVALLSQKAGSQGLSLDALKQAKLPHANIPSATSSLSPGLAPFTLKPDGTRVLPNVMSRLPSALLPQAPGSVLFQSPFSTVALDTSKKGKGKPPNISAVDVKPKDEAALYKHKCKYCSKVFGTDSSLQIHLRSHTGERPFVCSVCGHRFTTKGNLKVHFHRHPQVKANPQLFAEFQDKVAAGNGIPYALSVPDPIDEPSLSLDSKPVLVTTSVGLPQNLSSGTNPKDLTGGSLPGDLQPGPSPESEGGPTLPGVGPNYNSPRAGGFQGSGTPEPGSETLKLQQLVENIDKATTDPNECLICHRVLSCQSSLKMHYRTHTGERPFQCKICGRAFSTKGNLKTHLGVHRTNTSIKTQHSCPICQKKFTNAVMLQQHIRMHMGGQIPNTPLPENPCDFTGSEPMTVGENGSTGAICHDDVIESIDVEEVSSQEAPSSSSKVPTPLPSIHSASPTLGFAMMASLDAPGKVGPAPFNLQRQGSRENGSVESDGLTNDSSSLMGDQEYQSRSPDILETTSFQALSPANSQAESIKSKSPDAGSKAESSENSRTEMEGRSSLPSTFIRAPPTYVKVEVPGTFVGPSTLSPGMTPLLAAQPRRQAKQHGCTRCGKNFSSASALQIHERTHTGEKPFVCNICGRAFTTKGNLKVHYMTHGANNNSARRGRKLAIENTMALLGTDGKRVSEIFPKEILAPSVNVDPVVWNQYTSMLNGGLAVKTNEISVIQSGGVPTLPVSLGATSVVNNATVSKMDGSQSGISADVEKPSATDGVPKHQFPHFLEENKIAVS
# Setting: 8-mer, flanks averaged, mean of replicates
Oligonucleotide,E-score
AAATCCGA,0.127
ACCCGGCT,-0.287
CCCGATCA,-0.239
CAATGGTC,0.00965
AGTTTGTG,-0.00781
GCCTCCAC,-0.257
CACCAATG,-0.0338
CCGTGTAC,-0.0732
CAGTGTCA,-0.00517
CCTTGCCA,0.0601
TGGGTCAA,-0.169
CACTGGTC,-0.237
ATACGGCA,0.128
CGGCGGCA,-0.372
GATTTCAA,0.13
GAACCCAA,-0.179
AGGCCATG,-0.188
ACGACGGC,-0.293
GCTGGACC,-0.309
CTCCACGC,-0.13
ACTCGAGG,-0.15
AGGGAACG,-0.242

# Set 5 — method: protein binding microarray; form: double-stranded DNA, one strand shown; matrix: in vitro; tested at: not given; baseline: not given; direction: higher = stronger binding
# Target: Histone acetyltransferase KAT6A, winged helix 2, GST fusion (KAT6A, Homo sapiens, UniProt Q92794, residues 85-181)
# Setting: 8-mer, flanks averaged, mean of 2 arrays, mostly near background
# Target sequence (chain): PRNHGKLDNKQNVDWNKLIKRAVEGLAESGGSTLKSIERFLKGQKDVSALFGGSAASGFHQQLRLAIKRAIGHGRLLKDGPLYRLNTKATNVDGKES
Oligonucleotide,E-score
GACCGGTC,0.118
CTTGTTTA,0.074
ATACCAAC,0.003
AGGCGCTG,-0.115
ATAGTCTC,0.0119
TAATCAGA,0.0455
CAATAGGC,0.0616
AACTGCGC,-0.0298
ATGGGAAT,-0.157
ATCCTAAG,-0.0291
AATCCATC,-0.00386
AACCGGGC,0.0836
CACAGAGG,0.067
CTTCTGCC,0.145
GGGCAGAA,0.182
GATGCAAA,-0.0225
CCCCTTCG,0.115
ATCGATGC,-0.0276
ACCCCGCG,0.0732
TCATCCCA,-0.0329
CCTGACTC,-0.0506
AGATTGCG,0.119

# Set 6 — method: DHFR PCA, deep sequencing; matrix: yeast; added: (+)-ABA 0.0091 µM; baseline: wild-type fitted maximum; direction: higher = stronger binding
# Target: ABI1, truncated, D143A, DHFR fusion (Arabidopsis thaliana)
# Setting: methotrexate growth selection, single substitutions
# Parent: PYL1, truncated, DHFR fusion (Arabidopsis thaliana); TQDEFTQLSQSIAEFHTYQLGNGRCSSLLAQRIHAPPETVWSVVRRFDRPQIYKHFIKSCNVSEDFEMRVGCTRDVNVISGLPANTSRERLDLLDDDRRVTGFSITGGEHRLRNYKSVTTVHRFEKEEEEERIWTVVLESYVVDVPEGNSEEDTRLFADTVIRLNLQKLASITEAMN; partner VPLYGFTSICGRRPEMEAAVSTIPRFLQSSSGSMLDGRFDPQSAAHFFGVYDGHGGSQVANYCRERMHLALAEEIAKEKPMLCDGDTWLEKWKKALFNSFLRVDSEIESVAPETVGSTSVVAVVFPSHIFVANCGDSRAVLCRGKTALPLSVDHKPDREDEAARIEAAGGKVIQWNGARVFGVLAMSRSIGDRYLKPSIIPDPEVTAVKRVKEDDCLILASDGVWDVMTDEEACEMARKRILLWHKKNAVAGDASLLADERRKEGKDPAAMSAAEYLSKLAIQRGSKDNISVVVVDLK
Change,relative binding score
T101D,-7.24%
T73C,13.9%
E151V,50.5%
R163F,-9.01%
K126H,44.2%
T6Q,51.1%
N149Y,24.6%
H110E,46.4%
L20Y,20%
T173M,-0.712%
P37N,0.454%
K168C,2.01%
F15E,-1.03%
R49N,2.98%
I162N,-2.43%

# A few entries again (set 5):
Oligonucleotide,E-score
AACTGCGC,-0.0298
ATGGGAAT,-0.157
ATCCTAAG,-0.0291
AATCCATC,-0.00386
AACCGGGC,0.0836
CACAGAGG,0.067
CTTCTGCC,0.145
GGGCAGAA,0.182
GATGCAAA,-0.0225
